Published values pooled from the literature.
Each numbered part is a random draw from the data of one study; scales do not carry over between parts.
Sequence of UniProt Q9BYP7 (whole entry, looked up): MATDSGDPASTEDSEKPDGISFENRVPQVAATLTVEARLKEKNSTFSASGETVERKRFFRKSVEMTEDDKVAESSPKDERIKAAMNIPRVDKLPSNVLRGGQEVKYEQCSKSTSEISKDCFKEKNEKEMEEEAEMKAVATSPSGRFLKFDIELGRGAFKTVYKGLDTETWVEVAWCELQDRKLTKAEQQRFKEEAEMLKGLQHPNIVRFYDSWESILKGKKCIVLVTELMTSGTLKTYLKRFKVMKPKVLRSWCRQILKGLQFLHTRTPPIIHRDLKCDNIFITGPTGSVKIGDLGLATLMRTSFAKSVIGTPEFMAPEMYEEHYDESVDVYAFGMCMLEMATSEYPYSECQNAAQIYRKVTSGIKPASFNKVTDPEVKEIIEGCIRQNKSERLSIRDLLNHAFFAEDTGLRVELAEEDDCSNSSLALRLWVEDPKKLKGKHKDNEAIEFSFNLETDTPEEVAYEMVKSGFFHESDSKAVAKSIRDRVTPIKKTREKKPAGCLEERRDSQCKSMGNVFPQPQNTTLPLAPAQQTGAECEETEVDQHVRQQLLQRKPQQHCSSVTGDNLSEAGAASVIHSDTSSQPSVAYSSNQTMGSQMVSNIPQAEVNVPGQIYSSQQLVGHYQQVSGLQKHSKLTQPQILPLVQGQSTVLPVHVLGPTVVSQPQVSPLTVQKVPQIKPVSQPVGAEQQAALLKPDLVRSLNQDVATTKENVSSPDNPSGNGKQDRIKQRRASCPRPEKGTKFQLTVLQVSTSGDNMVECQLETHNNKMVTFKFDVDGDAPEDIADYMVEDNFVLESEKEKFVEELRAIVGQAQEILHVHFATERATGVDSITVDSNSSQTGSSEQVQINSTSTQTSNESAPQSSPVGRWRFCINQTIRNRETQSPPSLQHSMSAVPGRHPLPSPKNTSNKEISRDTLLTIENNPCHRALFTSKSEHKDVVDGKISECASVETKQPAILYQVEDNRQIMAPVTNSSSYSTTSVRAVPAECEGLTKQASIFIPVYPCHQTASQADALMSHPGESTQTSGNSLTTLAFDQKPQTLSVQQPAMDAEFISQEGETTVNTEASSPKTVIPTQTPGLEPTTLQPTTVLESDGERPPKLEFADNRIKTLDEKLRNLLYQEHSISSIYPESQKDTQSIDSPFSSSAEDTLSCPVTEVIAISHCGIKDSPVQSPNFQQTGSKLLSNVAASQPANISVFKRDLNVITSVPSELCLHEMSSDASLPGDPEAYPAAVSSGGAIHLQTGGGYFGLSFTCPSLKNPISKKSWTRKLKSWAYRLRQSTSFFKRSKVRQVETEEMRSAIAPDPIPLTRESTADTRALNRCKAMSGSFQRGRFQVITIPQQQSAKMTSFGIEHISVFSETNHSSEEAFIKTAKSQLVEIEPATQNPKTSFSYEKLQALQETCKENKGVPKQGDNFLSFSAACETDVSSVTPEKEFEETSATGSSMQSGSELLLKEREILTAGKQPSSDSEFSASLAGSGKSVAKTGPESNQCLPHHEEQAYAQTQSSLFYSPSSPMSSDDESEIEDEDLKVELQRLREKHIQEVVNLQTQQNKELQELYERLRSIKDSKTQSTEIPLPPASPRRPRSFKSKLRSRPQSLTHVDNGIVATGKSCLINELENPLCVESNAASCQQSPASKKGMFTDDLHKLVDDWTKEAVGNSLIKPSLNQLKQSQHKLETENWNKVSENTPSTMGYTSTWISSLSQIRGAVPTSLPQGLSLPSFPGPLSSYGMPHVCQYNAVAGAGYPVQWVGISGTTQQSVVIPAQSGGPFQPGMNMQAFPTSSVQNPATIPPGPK
Sequence of UniProt P10721 (whole entry, unmodified, looked up): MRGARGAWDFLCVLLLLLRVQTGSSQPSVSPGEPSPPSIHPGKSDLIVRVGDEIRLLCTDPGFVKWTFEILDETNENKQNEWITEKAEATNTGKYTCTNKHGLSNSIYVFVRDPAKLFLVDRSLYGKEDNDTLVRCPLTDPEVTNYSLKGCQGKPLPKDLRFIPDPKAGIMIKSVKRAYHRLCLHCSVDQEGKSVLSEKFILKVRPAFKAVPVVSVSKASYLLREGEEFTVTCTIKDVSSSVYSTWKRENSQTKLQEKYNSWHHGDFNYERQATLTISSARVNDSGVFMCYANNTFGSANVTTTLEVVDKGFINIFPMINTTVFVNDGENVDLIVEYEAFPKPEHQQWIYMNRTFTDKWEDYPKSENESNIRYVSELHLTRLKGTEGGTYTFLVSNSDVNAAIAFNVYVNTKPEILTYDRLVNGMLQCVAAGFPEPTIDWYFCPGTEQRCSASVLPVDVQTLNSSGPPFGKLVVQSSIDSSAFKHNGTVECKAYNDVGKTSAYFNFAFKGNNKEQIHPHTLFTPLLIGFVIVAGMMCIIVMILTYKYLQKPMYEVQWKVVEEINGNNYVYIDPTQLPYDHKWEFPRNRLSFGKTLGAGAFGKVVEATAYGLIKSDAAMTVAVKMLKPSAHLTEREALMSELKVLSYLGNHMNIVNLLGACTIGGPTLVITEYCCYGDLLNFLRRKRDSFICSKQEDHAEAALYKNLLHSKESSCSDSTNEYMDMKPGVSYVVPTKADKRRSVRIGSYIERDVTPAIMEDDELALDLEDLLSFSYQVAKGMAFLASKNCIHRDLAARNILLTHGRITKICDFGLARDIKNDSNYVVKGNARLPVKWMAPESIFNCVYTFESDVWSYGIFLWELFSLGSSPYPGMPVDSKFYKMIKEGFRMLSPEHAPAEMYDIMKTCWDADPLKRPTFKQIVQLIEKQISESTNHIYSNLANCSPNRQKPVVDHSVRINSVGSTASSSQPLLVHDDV
Sequence of UniProt P54760 (whole entry, looked up): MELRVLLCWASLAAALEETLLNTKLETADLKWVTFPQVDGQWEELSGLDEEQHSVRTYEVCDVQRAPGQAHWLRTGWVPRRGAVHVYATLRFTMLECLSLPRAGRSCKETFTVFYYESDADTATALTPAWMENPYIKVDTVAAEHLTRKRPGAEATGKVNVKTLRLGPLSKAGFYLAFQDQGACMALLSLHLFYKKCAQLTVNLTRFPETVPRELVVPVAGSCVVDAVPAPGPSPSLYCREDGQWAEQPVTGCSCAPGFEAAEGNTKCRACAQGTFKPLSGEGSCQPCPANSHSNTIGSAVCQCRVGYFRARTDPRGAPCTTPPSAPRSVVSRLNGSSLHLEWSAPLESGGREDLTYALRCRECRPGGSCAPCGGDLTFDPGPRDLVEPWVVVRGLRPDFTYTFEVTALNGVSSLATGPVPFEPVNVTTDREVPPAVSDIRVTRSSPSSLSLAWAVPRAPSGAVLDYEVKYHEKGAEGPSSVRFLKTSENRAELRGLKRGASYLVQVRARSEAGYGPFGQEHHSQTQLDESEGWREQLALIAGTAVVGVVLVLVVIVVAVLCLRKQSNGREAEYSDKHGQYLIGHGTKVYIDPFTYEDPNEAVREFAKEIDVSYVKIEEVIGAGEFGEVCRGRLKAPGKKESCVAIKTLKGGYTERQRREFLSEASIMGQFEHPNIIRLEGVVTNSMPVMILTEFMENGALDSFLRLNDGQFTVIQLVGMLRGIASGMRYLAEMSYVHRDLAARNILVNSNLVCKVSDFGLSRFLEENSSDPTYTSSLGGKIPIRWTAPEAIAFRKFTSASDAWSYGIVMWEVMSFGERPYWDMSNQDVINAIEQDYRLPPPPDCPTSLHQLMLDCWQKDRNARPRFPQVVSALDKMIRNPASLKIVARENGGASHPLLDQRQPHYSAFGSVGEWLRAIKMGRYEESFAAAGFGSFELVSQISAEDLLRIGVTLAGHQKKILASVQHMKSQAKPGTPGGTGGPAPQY
Sequence of UniProt Q9UK32 (whole entry, looked up): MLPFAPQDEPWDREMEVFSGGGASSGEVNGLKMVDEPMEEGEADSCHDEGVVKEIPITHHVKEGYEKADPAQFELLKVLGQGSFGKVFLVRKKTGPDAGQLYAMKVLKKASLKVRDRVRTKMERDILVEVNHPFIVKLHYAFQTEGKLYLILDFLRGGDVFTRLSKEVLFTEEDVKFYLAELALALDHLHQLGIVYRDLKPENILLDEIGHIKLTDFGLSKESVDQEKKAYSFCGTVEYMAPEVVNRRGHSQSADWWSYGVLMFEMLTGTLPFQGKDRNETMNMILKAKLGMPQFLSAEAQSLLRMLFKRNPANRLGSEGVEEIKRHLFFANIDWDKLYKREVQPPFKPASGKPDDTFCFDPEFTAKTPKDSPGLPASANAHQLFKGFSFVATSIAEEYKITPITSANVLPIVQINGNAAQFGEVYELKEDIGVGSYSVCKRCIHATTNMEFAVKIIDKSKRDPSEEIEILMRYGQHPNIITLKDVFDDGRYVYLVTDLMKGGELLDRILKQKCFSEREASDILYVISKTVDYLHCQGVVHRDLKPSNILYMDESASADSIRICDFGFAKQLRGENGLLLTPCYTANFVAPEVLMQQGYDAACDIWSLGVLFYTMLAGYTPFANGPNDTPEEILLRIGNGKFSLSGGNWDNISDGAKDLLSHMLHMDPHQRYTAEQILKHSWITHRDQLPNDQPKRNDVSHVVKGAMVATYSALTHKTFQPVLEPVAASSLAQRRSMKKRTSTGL

Series 1
Compound: Cc1cc(C)c(-n2ccn3nc(-c4cccnc4)cc23)cc1NC(=O)c1cc(C#N)cc(S(F)(F)(F)(F)F)c1
Technique: competition with immobilised ligand
Tested at: 0.1 µM
| target | effect on | remaining binding [%] |
| --- | --- | --- |
| Tyrosine-protein kinase ABL1, non-phosphorylated (ABL1, Homo sapiens, UniProt P00519, H396P) | cell-free assay | 69 |
| PRKG2 (Homo sapiens, UniProt Q13237) | cell-free assay | 82.7 |
| CDK11B (Homo sapiens, UniProt P21127) | cell-free assay | 93.2 |
| CDK11A (Homo sapiens, UniProt Q9UQ88) | binding | 89.9 |
| LIM domain kinase 2 (LIMK2, Homo sapiens, UniProt P53671) | cell-free assay | 89 |
| CHEK2 (Homo sapiens, UniProt O96017) | cell-free assay | 100 |
| FLT3 (Homo sapiens, UniProt P36888, D835H) | cell-free assay | 87.8 |
| RIPK2 (Homo sapiens, UniProt O43353) | cell-free assay | 84.5 |
| MTOR (Homo sapiens, UniProt P42345) | cell-free assay | 70.1 |
| Mast/stem cell growth factor receptor Kit, autoinhibited (KIT, Homo sapiens, UniProt P10721) | cell-free assay | 76.8 |
| KIT (Homo sapiens, UniProt P10721, V559D) | cell-free assay | 45.6 |
| CHUK (Homo sapiens, UniProt O15111) | cell-free assay | 100 |
| CLK4 (Homo sapiens, UniProt Q9HAZ1) | cell-free assay | 93.3 |
| CILK1 (Homo sapiens, UniProt Q9UPZ9) | binding | 74.1 |
| KDR (Homo sapiens, UniProt P35968) | cell-free assay | 76.2 |
| LRRK2 (Homo sapiens, UniProt Q5S007, G2019S) | cell-free assay | 73.9 |
| NTRK3 (Homo sapiens, UniProt Q16288) | cell-free assay | 60.4 |
| WNK3 (Homo sapiens, UniProt Q9BYP7) | cell-free assay | 61.9 |
| PDGFRB (Homo sapiens, UniProt P09619) | cell-free assay | 74.8 |
| TRPM6 (Homo sapiens, UniProt Q9BX84) | cell-free assay | 80.2 |
| BUB1 (Homo sapiens, UniProt O43683) | cell-free assay | 99.8 |
| VRK2 (Homo sapiens, UniProt Q86Y07) | cell-free assay | 79.8 |
| MAP3K1 (Homo sapiens, UniProt Q13233) | cell-free assay | 78.3 |
| MAPK10 (Homo sapiens, UniProt P53779) | cell-free assay | 100 |

Series 2
Target: Calcium/calmodulin-dependent protein kinase type II subunit alpha (CAMK2A, Homo sapiens, UniProt Q9UQM7)
Sequence of UniProt Q9UQM7 (whole entry, looked up): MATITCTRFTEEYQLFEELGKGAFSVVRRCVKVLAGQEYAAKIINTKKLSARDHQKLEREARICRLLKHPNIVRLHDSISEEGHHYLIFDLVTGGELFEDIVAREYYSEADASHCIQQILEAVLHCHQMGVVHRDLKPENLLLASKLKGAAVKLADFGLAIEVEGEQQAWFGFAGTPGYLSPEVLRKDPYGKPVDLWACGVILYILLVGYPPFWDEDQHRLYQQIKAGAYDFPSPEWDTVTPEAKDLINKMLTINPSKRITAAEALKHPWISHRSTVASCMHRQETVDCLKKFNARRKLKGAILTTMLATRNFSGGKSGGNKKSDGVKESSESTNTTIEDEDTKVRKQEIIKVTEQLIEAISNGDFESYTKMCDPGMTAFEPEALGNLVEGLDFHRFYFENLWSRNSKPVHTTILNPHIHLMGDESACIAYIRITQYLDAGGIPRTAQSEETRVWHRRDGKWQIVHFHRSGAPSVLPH
Effect on: enzyme activity
Mode: inhibitor
Tested at: 10 µM
| SMILES | inhibition [%] |
| --- | --- |
| CO[C@@H]1O[C@H](CO)[C@H](O)[C@H](O)[C@H]1O | -17 |
| CC(=O)N1C[C@H](O)C[C@H]1C(=O)O | 13 |
| Cc1cncc(CN2CCC(=C3c4ccc(Cl)cc4CCc4cccnc43)CC2)c1 | -8 |
| NC(=O)C1(N2CCCCC2)CCN(CCCC(=O)c2ccc(F)cc2)CC1 | -3 |
| COc1ccc([C@@H]2OC[C@H]3[C@@H]2CO[C@@H]3c2ccc(O[C@@H]3O[C@H](CO)[C@@H](O)[C@H](O)[C@H]3O)c(OC)c2)cc1OC | 16 |
| C[N+](C)(C)CCCC[C@H](N)C(=O)O | -20 |
| C[C@H](CCC(=O)O)[C@H]1CC[C@H]2[C@@H]3C[C@H](O)[C@@H]4C[C@H](O)CC[C@]4(C)[C@H]3CC[C@]12C | -1 |
| CCCCCCCCCCCCCCCC(=O)OC[C@H](COP(=O)([O-])OCC[N+](C)(C)C)OC(=O)CCCCCCCCCCCCCCC | 21 |
| CCN(CC)CCOC(=O)C(c1ccccc1)C1CCCCC1 (centres unmarked) | -2 |
| O=C(N[C@H](COC(=O)[C@H](Cc1ccccc1)NC(=O)c1ccccc1)Cc1ccccc1)c1ccccc1 | -8 |
| CCC(=O)O[C@]1(C(=O)CCl)[C@@H](C)C[C@H]2[C@@H]3C[C@H](F)C4=CC(=O)C=C[C@]4(C)[C@@]3(F)[C@@H](O)C[C@@]21C | -6 |

Series 3
SMILES: CC(=O)O/N=C1/C(c2c(O)[nH]c3cc(Br)ccc23)=Nc2ccccc21
Effect on: enzyme activity
Mode: inhibitor
Tested at: 0.5 µM
Baseline: control
| target | remaining activity [%] |
| --- | --- |
| MAP4K4 (Homo sapiens, UniProt O95819) | 30.2 |
| BLK (Homo sapiens, UniProt P51451) | 25.6 |
| SRMS (Homo sapiens, UniProt Q9H3Y6) | 98 |
| RPS6KA5 (Homo sapiens, UniProt O75582) | 83.9 |
| RPS6KA6 (Homo sapiens, UniProt Q9UK32) | 70 |
| ABL1 (Homo sapiens, UniProt P00519) | 43.1 |
| MAPKAPK3 (Homo sapiens, UniProt Q16644) | 105 |
| EPHA4 (Homo sapiens, UniProt P54764) | 87.6 |
| HIPK4 (Homo sapiens, UniProt Q8NE63) | 95.5 |
| CAMK2B (Homo sapiens, UniProt Q13554) | 91.5 |
| EPHB1 (Homo sapiens, UniProt P54762) | 99.9 |
| PHKG1 (Homo sapiens, UniProt Q16816) | 67.7 |
| Cyclin-dependent kinase 4, with cyclin D3 (CDK4, Homo sapiens, UniProt P11802) | 86.2 |
| Cyclin-dependent kinase 6, with cyclin D3 (CDK6, Homo sapiens, UniProt Q00534) | 40.9 |
| AXL (Homo sapiens, UniProt P30530) | 88 |
| TSSK2 (Homo sapiens, UniProt Q96PF2) | 101 |
| EPHB4 (Homo sapiens, UniProt P54760) | 92.2 |
| Cyclin-dependent kinase 1, with cyclin B (CDK1, Homo sapiens, UniProt P06493) | 79.3 |
| HIPK2 (Homo sapiens, UniProt Q9H2X6) | 99.1 |
| STK17A (Homo sapiens, UniProt Q9UEE5) | 72.7 |
| PDPK1 (Homo sapiens, UniProt O15530) | 88.2 |
| STK16 (Homo sapiens, UniProt O75716) | 76.5 |
| WNK3 (Homo sapiens, UniProt Q9BYP7) | 93 |

Series 4
Species: human
Sample: microsomes or S9
Tested at: 2 µM
Time: 0.5 h
| Compound | remaining compound [%] |
| --- | --- |
| CC(C)n1nc(-c2nnc(-c3cccc(Br)c3)[nH]2)c2ccccc2c1=O | > 100 |
| CCN(CCCNc1nc(-c2ccccc2)no1)c1ccccc1 | 1.53 |
| Fc1cc(F)cc(-c2noc3ncnc(Nc4ccc(-c5ccno5)cc4)c23)c1 | 26.4 |
| Cc1ccc(CNc2ncc(-c3ccccc3F)c(-c3nccn3C)n2)cc1 | 3.74 |
| Cc1nn(C)cc1-c1cncn1C(C)Cc1c(C)nn(C)c1C (centres unmarked) | 89.9 |
| O=C(Nc1ccncc1)c1nn(-c2ccc(F)cc2)c2c1CCc1ccccc1-2 | 75.8 |
| COC(=O)c1nc(C2CC(C(C)(C)C)=NO2)cc(N)c1Cl (centres unmarked) | 50.3 |
| O=C1COc2ccc(-c3cc4ccccn4c3)cc2N1 | 0 |
| OCCN(Cc1ccccc1)CC(O)COc1c(F)cc(Br)cc1F (centres unmarked) | > 99.9 |
| Cc1ccccc1-c1nc2ccccc2cc1C(C)n1c(=O)n(-c2ccc(O)c(F)c2)c2cnc(N)nc21 (centres unmarked) | 35.7 |
| Cc1nc(C2(NS(=O)(=O)c3c(C)c(C)c(C)c(C)c3C)CCCC2)no1 | 1.39 |
| CC(Nc1ncc(Cl)cn1)C(C)n1cncn1 (centres unmarked) | 96.8 |
| CC(=O)Oc1cc(OC(C)=O)c2c(c1)-c1coc3cc(OC(C)=O)cc(c13)C2=O | 0.00529 |
| O=c1[nH]c(N2CCCC2)nc2ncc3c(c12)CCC3 | 42.7 |
| COc1cc(Nc2ncnc3cc(OC)c(OCC4CN(C(=O)OC(C)(C)C)CCO4)cc23)ccc1Cl (centres unmarked) | 27.8 |
| Cc1ccc2c(c1)N(C(=O)c1ccncc1)CC(C)O2 (centres unmarked) | > 100 |

A few entries again (series 3):
| target | remaining activity [%] |
| --- | --- |
| EPHB1 (Homo sapiens, UniProt P54762) | 99.9 |
| PHKG1 (Homo sapiens, UniProt Q16816) | 67.7 |
| Cyclin-dependent kinase 4, with cyclin D3 (CDK4, Homo sapiens, UniProt P11802) | 86.2 |
| Cyclin-dependent kinase 6, with cyclin D3 (CDK6, Homo sapiens, UniProt Q00534) | 40.9 |
| AXL (Homo sapiens, UniProt P30530) | 88 |
| TSSK2 (Homo sapiens, UniProt Q96PF2) | 101 |
| EPHB4 (Homo sapiens, UniProt P54760) | 92.2 |
| Cyclin-dependent kinase 1, with cyclin B (CDK1, Homo sapiens, UniProt P06493) | 79.3 |
| HIPK2 (Homo sapiens, UniProt Q9H2X6) | 99.1 |
| STK17A (Homo sapiens, UniProt Q9UEE5) | 72.7 |
| PDPK1 (Homo sapiens, UniProt O15530) | 88.2 |
